Assay results pooled from the literature.
Each numbered part is a random draw from the data of one study; scales do not carry over between parts.
Sequence of UniProt Q15831 (whole entry, looked up): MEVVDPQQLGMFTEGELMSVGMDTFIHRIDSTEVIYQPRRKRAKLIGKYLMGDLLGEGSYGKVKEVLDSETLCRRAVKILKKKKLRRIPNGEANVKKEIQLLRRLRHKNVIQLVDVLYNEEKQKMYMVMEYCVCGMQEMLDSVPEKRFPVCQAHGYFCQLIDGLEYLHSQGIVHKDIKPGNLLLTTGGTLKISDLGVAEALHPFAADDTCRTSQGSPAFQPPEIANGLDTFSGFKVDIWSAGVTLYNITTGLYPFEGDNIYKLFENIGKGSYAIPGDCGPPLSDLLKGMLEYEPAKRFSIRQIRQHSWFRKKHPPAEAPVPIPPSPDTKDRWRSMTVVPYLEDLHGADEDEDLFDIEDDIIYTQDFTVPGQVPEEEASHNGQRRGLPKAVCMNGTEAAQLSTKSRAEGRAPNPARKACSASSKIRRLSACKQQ
Sequence of UniProt P21802 (whole entry, looked up): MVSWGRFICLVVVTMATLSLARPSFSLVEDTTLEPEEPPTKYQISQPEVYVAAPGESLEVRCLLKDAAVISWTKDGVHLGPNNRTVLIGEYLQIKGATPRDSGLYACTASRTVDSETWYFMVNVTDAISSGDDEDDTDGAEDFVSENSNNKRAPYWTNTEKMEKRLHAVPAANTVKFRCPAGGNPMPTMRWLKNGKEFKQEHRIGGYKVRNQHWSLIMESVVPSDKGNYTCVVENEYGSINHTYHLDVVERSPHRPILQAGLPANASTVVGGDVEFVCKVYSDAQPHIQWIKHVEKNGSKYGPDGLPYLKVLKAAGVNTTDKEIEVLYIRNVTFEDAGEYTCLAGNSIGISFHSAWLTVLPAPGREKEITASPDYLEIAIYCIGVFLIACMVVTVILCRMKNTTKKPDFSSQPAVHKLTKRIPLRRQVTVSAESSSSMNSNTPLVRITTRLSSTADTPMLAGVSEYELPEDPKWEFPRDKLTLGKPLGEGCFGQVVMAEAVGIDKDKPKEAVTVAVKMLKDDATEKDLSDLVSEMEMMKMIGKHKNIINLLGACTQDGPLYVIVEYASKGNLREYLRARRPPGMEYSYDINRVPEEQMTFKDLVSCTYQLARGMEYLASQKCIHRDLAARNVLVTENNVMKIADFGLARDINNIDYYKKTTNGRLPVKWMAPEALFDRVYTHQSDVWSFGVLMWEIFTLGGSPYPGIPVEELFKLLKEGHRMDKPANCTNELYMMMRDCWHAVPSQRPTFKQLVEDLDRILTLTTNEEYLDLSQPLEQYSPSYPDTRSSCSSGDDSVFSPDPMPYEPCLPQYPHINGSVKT
Sequence of UniProt P27037 (whole entry, looked up): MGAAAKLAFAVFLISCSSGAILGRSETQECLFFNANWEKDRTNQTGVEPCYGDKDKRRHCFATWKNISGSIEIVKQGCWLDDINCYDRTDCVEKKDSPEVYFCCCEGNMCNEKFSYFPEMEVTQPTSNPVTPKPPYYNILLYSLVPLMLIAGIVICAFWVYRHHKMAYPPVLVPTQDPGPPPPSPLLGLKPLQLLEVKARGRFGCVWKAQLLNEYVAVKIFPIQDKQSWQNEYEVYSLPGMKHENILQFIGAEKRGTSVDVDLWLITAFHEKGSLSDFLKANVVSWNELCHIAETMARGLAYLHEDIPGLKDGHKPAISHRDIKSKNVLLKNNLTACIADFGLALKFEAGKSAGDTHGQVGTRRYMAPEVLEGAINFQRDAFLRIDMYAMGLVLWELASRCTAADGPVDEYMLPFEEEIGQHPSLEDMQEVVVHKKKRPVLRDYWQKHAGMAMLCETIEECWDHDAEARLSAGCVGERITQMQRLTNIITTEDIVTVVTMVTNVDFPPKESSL
Sequence of UniProt O95382 (whole entry, looked up): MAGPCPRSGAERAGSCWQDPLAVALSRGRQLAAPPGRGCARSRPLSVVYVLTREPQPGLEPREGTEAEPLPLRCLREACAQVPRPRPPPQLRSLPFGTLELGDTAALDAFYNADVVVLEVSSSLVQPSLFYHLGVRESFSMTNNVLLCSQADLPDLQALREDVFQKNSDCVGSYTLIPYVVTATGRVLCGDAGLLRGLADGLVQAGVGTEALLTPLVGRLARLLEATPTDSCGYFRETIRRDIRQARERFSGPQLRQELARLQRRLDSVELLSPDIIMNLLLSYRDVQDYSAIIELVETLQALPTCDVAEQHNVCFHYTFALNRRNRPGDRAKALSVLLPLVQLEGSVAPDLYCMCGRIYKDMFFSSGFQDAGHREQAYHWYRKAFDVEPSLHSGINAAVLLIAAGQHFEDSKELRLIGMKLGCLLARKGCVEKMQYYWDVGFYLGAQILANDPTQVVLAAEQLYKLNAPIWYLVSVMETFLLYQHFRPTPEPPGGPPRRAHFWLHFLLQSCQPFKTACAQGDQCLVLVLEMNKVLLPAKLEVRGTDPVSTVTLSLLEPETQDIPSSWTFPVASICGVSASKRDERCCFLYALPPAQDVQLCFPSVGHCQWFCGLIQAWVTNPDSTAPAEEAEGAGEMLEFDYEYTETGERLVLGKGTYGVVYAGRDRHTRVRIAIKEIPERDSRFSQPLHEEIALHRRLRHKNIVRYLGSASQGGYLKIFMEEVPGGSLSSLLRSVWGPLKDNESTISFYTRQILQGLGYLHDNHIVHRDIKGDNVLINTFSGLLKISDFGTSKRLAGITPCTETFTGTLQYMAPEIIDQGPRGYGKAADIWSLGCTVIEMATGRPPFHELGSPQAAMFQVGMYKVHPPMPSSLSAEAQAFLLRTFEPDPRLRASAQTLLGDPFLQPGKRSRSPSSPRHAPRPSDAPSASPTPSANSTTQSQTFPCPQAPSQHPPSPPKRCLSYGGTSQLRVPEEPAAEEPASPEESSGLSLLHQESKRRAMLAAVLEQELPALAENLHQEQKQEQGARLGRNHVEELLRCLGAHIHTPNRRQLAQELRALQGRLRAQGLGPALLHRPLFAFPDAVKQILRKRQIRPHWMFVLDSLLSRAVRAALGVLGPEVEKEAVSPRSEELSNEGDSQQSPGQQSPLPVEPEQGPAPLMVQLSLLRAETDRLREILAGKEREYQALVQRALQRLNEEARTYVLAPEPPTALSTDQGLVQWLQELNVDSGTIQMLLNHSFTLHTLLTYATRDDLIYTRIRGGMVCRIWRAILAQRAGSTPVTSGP
Sequence of UniProt P07947 (whole entry, looked up): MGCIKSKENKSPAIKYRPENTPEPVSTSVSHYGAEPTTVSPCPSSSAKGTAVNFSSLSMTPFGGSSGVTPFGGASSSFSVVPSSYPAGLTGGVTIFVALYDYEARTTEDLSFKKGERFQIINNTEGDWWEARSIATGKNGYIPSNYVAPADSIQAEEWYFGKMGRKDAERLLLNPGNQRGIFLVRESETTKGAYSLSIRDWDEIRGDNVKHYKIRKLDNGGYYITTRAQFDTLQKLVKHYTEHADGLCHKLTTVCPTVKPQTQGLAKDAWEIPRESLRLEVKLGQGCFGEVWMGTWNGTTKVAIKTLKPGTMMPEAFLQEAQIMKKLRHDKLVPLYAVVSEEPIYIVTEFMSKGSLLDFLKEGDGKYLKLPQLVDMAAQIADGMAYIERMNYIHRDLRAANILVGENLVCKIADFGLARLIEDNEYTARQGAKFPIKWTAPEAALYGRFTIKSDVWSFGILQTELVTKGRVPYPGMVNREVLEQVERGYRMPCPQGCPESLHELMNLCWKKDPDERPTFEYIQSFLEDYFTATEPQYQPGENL
Sequence of UniProt Q13131 (whole entry, looked up): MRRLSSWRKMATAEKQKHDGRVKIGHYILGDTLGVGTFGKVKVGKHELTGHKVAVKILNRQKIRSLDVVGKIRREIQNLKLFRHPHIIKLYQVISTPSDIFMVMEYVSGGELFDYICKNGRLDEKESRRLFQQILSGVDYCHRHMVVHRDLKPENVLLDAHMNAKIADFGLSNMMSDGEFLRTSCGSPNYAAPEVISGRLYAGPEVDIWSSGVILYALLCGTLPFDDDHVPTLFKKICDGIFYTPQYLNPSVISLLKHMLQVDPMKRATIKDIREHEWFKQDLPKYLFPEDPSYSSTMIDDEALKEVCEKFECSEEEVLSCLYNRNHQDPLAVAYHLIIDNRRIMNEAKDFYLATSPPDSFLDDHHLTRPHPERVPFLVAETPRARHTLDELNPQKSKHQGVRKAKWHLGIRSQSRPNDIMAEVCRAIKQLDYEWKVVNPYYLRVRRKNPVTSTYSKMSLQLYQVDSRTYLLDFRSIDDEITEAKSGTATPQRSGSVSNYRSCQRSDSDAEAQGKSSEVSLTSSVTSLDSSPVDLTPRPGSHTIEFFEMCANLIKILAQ
Sequence of UniProt P53667 (whole entry, looked up): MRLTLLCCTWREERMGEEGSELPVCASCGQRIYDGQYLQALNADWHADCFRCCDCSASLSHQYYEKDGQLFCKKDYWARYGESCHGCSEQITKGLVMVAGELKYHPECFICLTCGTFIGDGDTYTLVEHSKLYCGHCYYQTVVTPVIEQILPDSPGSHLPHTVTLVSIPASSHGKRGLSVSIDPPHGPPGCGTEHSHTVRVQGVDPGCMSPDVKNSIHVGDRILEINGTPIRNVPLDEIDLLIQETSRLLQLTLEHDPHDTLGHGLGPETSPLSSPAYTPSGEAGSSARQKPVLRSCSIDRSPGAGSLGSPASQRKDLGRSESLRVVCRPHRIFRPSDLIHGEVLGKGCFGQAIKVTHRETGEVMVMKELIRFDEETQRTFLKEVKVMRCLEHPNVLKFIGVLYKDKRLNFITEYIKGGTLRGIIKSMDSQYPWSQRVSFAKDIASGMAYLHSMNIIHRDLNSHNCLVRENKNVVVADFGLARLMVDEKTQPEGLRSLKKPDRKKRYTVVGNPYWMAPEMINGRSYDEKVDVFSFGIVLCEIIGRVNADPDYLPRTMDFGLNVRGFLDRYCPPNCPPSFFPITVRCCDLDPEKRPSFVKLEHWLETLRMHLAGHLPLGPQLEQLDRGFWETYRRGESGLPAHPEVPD

Study 1
SMILES: CCCOc1ccc([C@H]2[C@H](C(=O)O)[C@@H](c3ccc4c(c3)OCO4)CN2CC(=O)Nc2c(CC)cccc2CC)cc1
Concentration: 1 µM
Quantity: remaining binding
ACVR2A (Homo sapiens, UniProt P27037); cell-free assay, competition with immobilised ligand: 100%
Ribosomal protein S6 kinase alpha-1, N-terminal kinase domain (RPS6KA1, Homo sapiens, UniProt Q15418); cell-free assay, competition with immobilised ligand: 87%
STK11 (Homo sapiens, UniProt Q15831); cell-free assay, competition with immobilised ligand: 88%
YES1 (Homo sapiens, UniProt P07947); cell-free assay, competition with immobilised ligand: 99%
Tyrosine-protein kinase ABL1, phosphorylated (ABL1, Homo sapiens, UniProt P00519, F317I); binding: 71%
PRKAA1 (Homo sapiens, UniProt Q13131); cell-free assay, competition with immobilised ligand: 100%
MAP3K6 (Homo sapiens, UniProt O95382); cell-free assay, competition with immobilised ligand: 65%
CSNK1A1 (Homo sapiens, UniProt P48729); cell-free assay, competition with immobilised ligand: 72%
GRK1 (Homo sapiens, UniProt Q15835); cell-free assay, competition with immobilised ligand: 68%
PHKG2 (Homo sapiens, UniProt P15735); cell-free assay, competition with immobilised ligand: 86%
CDK13 (Homo sapiens, UniProt Q14004); cell-free assay, competition with immobilised ligand: 45%
FGFR2 (Homo sapiens, UniProt P21802); cell-free assay, competition with immobilised ligand: 100%
CDC42BPB (Homo sapiens, UniProt Q9Y5S2); cell-free assay, competition with immobilised ligand: 87%
BLK (Homo sapiens, UniProt P51451); cell-free assay, competition with immobilised ligand: 88%
LIM domain kinase 1 (LIMK1, Homo sapiens, UniProt P53667); cell-free assay, competition with immobilised ligand: 100%

Study 2
Cell line: A-375
Concentration: 100 µM
Time: 36 h
Quantity: viability
CCOc1ccc(Cc2cc([C@@H]3O[C@H](CO)[C@@H](O)[C@H](O)[C@H]3O)ccc2Cl)cc1: 94.9%
CO[C@H]1C[C@@H]2CC[C@@H](C)[C@@](O)(O2)C(=O)C(=O)N2CCCC[C@H]2C(=O)O[C@H]([C@H](C)C[C@@H]2CC[C@@H](OC(=O)C(C)(CO)CO)[C@H](OC)C2)CC(=O)[C@H](C)/C=C(\C)[C@@H](O)[C@@H](OC)C(=O)[C@H](C)C[C@H](C)/C=C/C=C/C=C/1C: 29.9%
COc1c(N2CCNC(C)C2)c(F)cc2c(=O)c(C(=O)O)cn(C3CC3)c12 (centres unmarked): 19.5%
N=C(N)N/N=C/c1c(Cl)cccc1Cl: 38.4%
CCC(=O)O[C@]1(C(=O)CCl)[C@@H](C)C[C@H]2[C@@H]3CCC4=CC(=O)C=C[C@]4(C)[C@@]3(F)[C@@H](O)C[C@@]21C: 73.9%
Cc1cccc(C)c1OCC(C)N (centres unmarked): 90.8%
OCCOc1ccc(/C(=C(/CCCl)c2ccccc2)c2ccccc2)cc1: 1.91%

Study 3
Organism: Sarcocystis neurona
Observed: parasite growth
Concentration: 10 µM
Time: 96 h
Baseline: untreated
Quantity: log2 fold change
OC(CCN1CCCC1)(c1ccccc1)C1CCCCC1 (centres unmarked): -0.12
COc1ccc(CC2c3cc(OC)c(OC)cc3CC[N+]2(C)CCC(=O)OCCCCCOC(=O)CC[N+]2(C)CCc3cc(OC)c(OC)cc3C2Cc2ccc(OC)c(OC)c2)cc1OC (centres unmarked): -0.1
COc1cc2nc(N3CCN(C(=O)C4COc5ccccc5O4)CC3)nc(N)c2cc1OC (centres unmarked): -1.89
C[n+]1ccccc1/C=N/O: 0.37
CCCCc1oc2ccccc2c1C(=O)c1cc(I)c(OCCN(CC)CC)c(I)c1: -0.11
Nc1nc(N)c2nc(-c3ccccc3)c(N)nc2n1: 0.73
NC(=O)N1c2ccccc2C=Cc2ccccc21: 0.34
COc1cccc2c1C(=O)c1c(O)c3c(c(O)c1C2=O)C[C@@](O)(C(C)=O)C[C@@H]3O[C@H]1C[C@H](N)[C@H](O)[C@H](C)O1: -4.93

Further values, each from its own experiment
CCOC(=O)[C@@H]1CSCC(=O)N[C@@H](CC)C(=O)N(C)[C@@H](C)C(=O)N[C@@H](CC(C)C)C(=O)N2CCC[C@@H]2C(=O)N(CC)CC(=O)N[C@@H](CC(C)C)C(=O)N(C)[C@@H](C)C(=O)N[C@@H](CC(C)C)C(=O)N1C
logD (hydrocarbon/water): 1.63

CC(C)n1cnc(-c2ccc(F)cc2)c1-c1ncc(C(=O)Nc2ccc(N3CCN(C)CC3)cc2)[nH]1
Hypoalbuminaemia incidence (IPF patients; 30 mg once daily, adverse event): 0%

A few entries again (study 3):
CCCCc1oc2ccccc2c1C(=O)c1cc(I)c(OCCN(CC)CC)c(I)c1: -0.11
Nc1nc(N)c2nc(-c3ccccc3)c(N)nc2n1: 0.73
NC(=O)N1c2ccccc2C=Cc2ccccc21: 0.34
COc1cccc2c1C(=O)c1c(O)c3c(c(O)c1C2=O)C[C@@](O)(C(C)=O)C[C@@H]3O[C@H]1C[C@H](N)[C@H](O)[C@H](C)O1: -4.93
